Measured values of several laboratories.
Compare with care: the assays were run in different laboratories. ± marks the error that the study gave.

Compound | test | test system | setting | Cmax
COC(=O)N[C@H](C(=O)N1CCC[C@H]1c1ncc(-c2cc(F)c3c(c2)O[C@@H](c2cnc(C4CC4)s2)n2c-3cc3cc(-c4cnc([C@@H]5CCCN5C(=O)[C@@H](NC(=O)OC)C(C)C)[nH]4)ccc32)[nH]1)C(C)C |  | healthy adults, plasma | oral, 180 mg once daily, day 6, fasted, alone, geometric mean | 320 ng/mL
N[C@@H](Cc1ccc(O)c(O)c1)C(=O)O |  | Parkinson's disease patients, plasma | oral, low carbidopa AUC subgroup (11.5 µmol·h/L), median | 6460 nM
CC[C@H](Nc1ncnc2[nH]cnc12)c1oc2ccccc2c(=O)c1-c1cccc(F)c1 |  | patients, Cohort-1, plasma | oral, 400 mg twice daily, added: romidepsin 12 mg/m2 | 1540 ± 1610 ng/mL
CCCCCCCCCCCCCCCC(=O)N[C@@H](CCC(=O)NCCCC[C@@H]1NC(=O)[C@H]([C@@H](C)CC)NC(=O)[C@@H](NC(=O)[C@@H]2CCCN2C(=O)[C@H](Cc2ccccc2)NC(=O)[C@H](Cc2c[nH]cn2)NC(=O)[C@@H](NC(=O)[C@H](CC(=O)O)NC(=O)CC(C)C)[C@@H](C)O)CSSC[C@@H](C(=O)N[C@@H](CCCCN)C(N)=O)NC(=O)CNC(=O)[C@H](CCCCN)NC(=O)[C@H](CO)NC(=O)[C@H](CCCNC(=N)N)NC(=O)[C@@H]2CCCN2C(=O)[C@H](CCC(=O)O)NC(=O)[C@H](Cc2ccccc2)NC1=O)C(=O)O |  | healthy volunteers, plasma | subcutaneous, 45 mg single, lyophilised formulation | 460 ± 106 ng/mL
CCCCCCCOc1ccc(CCC(N)(CO)CO)cc1C(F)(F)F.Cl |  | healthy men, plasma | oral, 0.125 mg, day 1 | 0.0441 ng/mL
C[C@H]1[C@H]2N(C(=O)CN(C)N2C(=O)NCc2ccccc2)[C@@H](Cc2ccc(OP(=O)(O)O)cc2)C(=O)N1Cc1cccc2cccnc12 |  | patients, plasma | intravenous infusion, 140 mg/m2 over 4 h, median | 883 ng/mL
O=C([O-])CCCCCCCNC(=O)c1ccccc1O.[Na+] |  | healthy postmenopausal women | 300 mg, oral contraceptive alone, geometric mean | 1920 ng/mL
O=C(c1cccnc1-c1ccncc1)N1CCC(O)(Cc2ccccc2)CC1 |  | healthy Japanese adults, plasma | oral, 100 mg twice daily, day 1 | 255 ng/mL
CCCCC[C@H](O)CC[C@@H]1[C@H]2Cc3cccc(OCC(=O)O)c3C[C@H]2C[C@H]1O |  | healthy Japanese adults, plasma | inhaled, 18 µg single dose, scaled by body weight/60 kg | 0.42 ± 0.06 ng/mL
N[C@@H]1c2ccccc2OC12CCN(c1cnc3c(N4CCCc5ncccc54)n[nH]c3n1)CC2 |  | patients advanced solid tumours, plasma | oral, 150 mg once daily, cycle 1 day 15 | 949 ng/mL
Cc1ccc(NC(=O)c2ccc(CN3CCN(C)CC3)cc2)cc1Nc1nccc(-c2cncc(-c3oncc3C)c2)n1 |  | Parkinson's disease patients, plasma | oral, 50 mg/day, 7 days, steady state | 2560 ± 564 ng/mL
CCNC(=O)[C@@H]1CCCN1C(=O)[C@H](CCCNC(=N)N)NC(=O)[C@H](CC(C)C)NC(=O)[C@@H](CC(C)C)NC(=O)[C@H](Cc1ccc(O)cc1)NC(=O)[C@H](CO)NC(=O)[C@H](Cc1c[nH]c2ccccc12)NC(=O)[C@H](Cc1c[nH]cn1)NC(=O)[C@@H]1CCC(=O)N1 |  | healthy premenopausal women, plasma | oral, 4 mg once daily, day 1 | 3.7 ± 3.2 ng/mL
OC[C@H]1O[C@@H](c2ccc(F)c(Cc3cc4ccccc4s3)c2)[C@H](O)[C@@H](O)[C@@H]1O |  | Japanese type 2 diabetes patients, plasma | oral, 25 mg/day, day 1 | 626 ± 128 ng/mL
C[C@@H](N)C1CCN(S(=O)(=O)c2cccc3cnccc23)CC1 |  | healthy volunteers, fasted, plasma | oral, 75 mg | 16.9 ng/mL
C[C@@H]1CCO[C@H]2Cn3cc(C(=O)NCc4ccc(F)cc4F)c(=O)c(O)c3C(=O)N12 | population PK, post-hoc | children, 25 to <30 kg, plasma | oral, 25 mg film-coated tablet, steady state, geometric mean | 3020 ng/mL
C[C@H](NC(=O)/C(C#N)=C/c1cccc(Br)n1)c1ccccc1 | LC-MS/MS | patients, plasma | oral, 4 mg/kg, cycle 1 day 1 | 23.3 ng/mL
CCc1nc(C(N)=O)c(Nc2ccc(N3CCC(N4CCN(C)CC4)CC3)c(OC)c2)nc1NC1CCOCC1 |  | patients, plasma | oral, 80 mg once daily, cycle 1 day 15, median | 396 ng/mL
CCc1nc2c(C)cc(N3CCN(CC(=O)N4CC(O)C4)CC3)cn2c1N(C)c1nc(-c2ccc(F)cc2)c(C#N)s1 |  | healthy volunteers, fed, plasma | oral, 600 mg single dose, day 1, suspension | 9800 ng/mL
C#C[C@]1(O)CC[C@H]2[C@@H]3CCC4=CC(=O)CC[C@@H]4[C@H]3CC[C@@]21C | radioimmunoassay | HIV-infected women, no protease inhibitor, serum | oral, 0.35 mg, steady state, geometric mean | 2.09 ng/mL

Compound | test | test system | setting | Cmax
COc1c(O)cc(C(=O)O)cc1O |  | broiler chickens, serum | oral, in feed, 2000 mg/kg feed, 24 h, corn diet with tannins | 100 ± 20 nM
CNC(=O)c1cc(Oc2ccc(NC(=O)N(c3ccc(Cl)c(C(F)(F)F)c3)[C@@H]3O[C@H](C(=O)O)[C@@H](O)[C@H](O)[C@H]3O)cc2)ccn1 |  | patients, plasma | oral, 400 mg twice daily, steady state, without rifampin, geometric mean | 2560 ng/mL
Cc1ccc(C(=O)NC2CC2)cc1-n1ncc(C(=O)c2cccc(C#N)c2)c1N |  | healthy volunteers | oral, 75 mg single dose, mean observed | 729 ng/mL
O=C(O)c1cc(O)c(O)c(O)c1 |  | broiler chickens, serum | oral, in feed, 2000 mg/kg feed, 24 h, wheat diet with tannins | 400 ± 80 nM
Cc1ccc2c(c1)C(=O)[C@]1(O)CCN(c3ccc4nc(C)ccc4c3)C1=N2.Cl |  | plasma | oral, 10 mg/kg | 720 ± 210 nM
C[C@@](Cc1ccc(O)c(O)c1)(NN)C(=O)O |  | female Parkinson's disease patients, plasma | oral, dose not given, median | 75 ng/mL
CC[C@H](C)CCCCC(=O)N[C@@H](CCN)C(=O)N[C@H](C(=O)N[C@@H](CCN)C(=O)N[C@H]1CCNC(=O)[C@H]([C@@H](C)O)NC(=O)[C@H](CCN)NC(=O)[C@H](CCN)NC(=O)[C@H](CC(C)C)NC(=O)[C@@H](Cc2ccccc2)NC(=O)[C@H](CCN)NC1=O)[C@@H](C)O |  | mild renal impairment, plasma | intravenous infusion, 0.75 mg/kg, geometric least squares mean | 3580 ng/mL
COc1nnc2ccc(N3CCC(c4ccc(OCCN5CCN(C)C(=O)[C@H]5C)cc4)CC3)nn12 |  | patients, plasma | oral, 10 mg twice daily, multiple dose, monotherapy | 48.1 nM
CC(=O)N[C@H]1CC[C@H](NC(=O)CN2CCN(c3nncc(-c4ccc(C)cc4)n3)CC2)CC1 |  | men aged 18-55 years, plasma | oral, 100 mg single dose, study | 1190 ng/mL
CS(=O)(=O)c1ccc([C@@H](O)[C@@H](CF)NC(=O)C(Cl)Cl)cc1 |  | chicken (Arbor Acres), plasma | oral, 20 mg/kg, added: quercetin 60 mg/kg pretreatment | 10000 ± 710 ng/mL
C=CC(=O)NC1CCN(c2ncc3ncnc(Nc4ccc(Oc5ccc6c(c5)ncn6C)c(C)c4)c3n2)CC1 | measured: total radioactivity | healthy male volunteers, plasma | intravenous, 100 µg, 14C microtracer, geometric mean | 0.498 nM
Oc1ccc([C@@H](O)c2cc(-c3ncnc4cc(N5CCOCC5)ccc34)c(F)cc2Cl)nn1 | geometric mean | healthy volunteers, plasma | oral, 100 mg, high-fat fed tablet | 92.8 ng/mL
CC(=O)Nc1ccc(C[C@H](NC(=O)[C@H](CO)NC(=O)[C@@H](Cc2cccnc2)NC(=O)[C@@H](Cc2ccc(Cl)cc2)NC(=O)[C@@H](Cc2ccc3ccccc3c2)NC(C)=O)C(=O)N[C@H](Cc2ccc(NC(C)=O)cc2)C(=O)N[C@@H](CC(C)C)C(=O)N[C@@H](CCCCNC(C)C)C(=O)N2CCC[C@H]2C(=O)N[C@H](C)C(N)=O)cc1 |  | healthy men, fasted, serum | oral, 10 mg single dose | 15.3 ± 10.3 ng/mL
CC(C)(C)c1cc(C(C)(C)C)c(NC(=O)c2c[nH]c3ccccc3c2=O)cc1O |  | human, plasma | oral, standard ETI dose | 1300 ng/mL
C=CC(=O)NC1CCN(c2ncc3ncnc(Nc4ccc(Oc5ccc6c(c5)ncn6C)c(C)c4)c3n2)CC1 |  | healthy men | oral, 60 mg single dose, added: carbamazepine | 516 nM
N[C@@H](CC(=O)N1CCc2c(nc(C(F)(F)F)nc2C(F)(F)F)C1)CN1CC(F)(F)CCC1=O |  | healthy Korean adults, fasted, plasma | oral, 50 mg single dose, separate tablets, added: enavogliflozin 0.3 mg | 103 ± 31.5 ng/mL
C[C@H]1CN(C(=O)CC#N)[C@]12CCN(c1ncnc3[nH]ccc13)C2 |  | healthy adults, plasma | oral, 3 mg single dose | 17 ng/mL
CC(C)n1c(/C=C/C(O)CC(O)CC(=O)O)c(-c2ccc(F)cc2)c2ccccc21 (stereo not shown) |  | healthy volunteers | oral, 20 mg, alone, control phase | 176 ± 149 ng/mL

Some of these lines once more:
Compound | test | test system | setting | Cmax
Cc1ccc(C(=O)NC2CC2)cc1-n1ncc(C(=O)c2cccc(C#N)c2)c1N |  | healthy volunteers | oral, 75 mg single dose, mean observed | 729 ng/mL
O=C(O)c1cc(O)c(O)c(O)c1 |  | broiler chickens, serum | oral, in feed, 2000 mg/kg feed, 24 h, wheat diet with tannins | 400 ± 80 nM
Cc1ccc2c(c1)C(=O)[C@]1(O)CCN(c3ccc4nc(C)ccc4c3)C1=N2.Cl |  | plasma | oral, 10 mg/kg | 720 ± 210 nM
C[C@@](Cc1ccc(O)c(O)c1)(NN)C(=O)O |  | female Parkinson's disease patients, plasma | oral, dose not given, median | 75 ng/mL
